Measurements pooled from the literature.
Compare with care: the assays were run in different laboratories. Numbers after ± are the reported error.

With `COc1cc(NC(C)=O)c2c(c1O)-c1c(OC)c(OC)cc3c1C(C2)N(C)CC3` (stereo not drawn) the remaining compound was 107 ± 2.7% (rat lung homogenate; 0.5 µg/mL, 4 h, room temperature, short-term storage).
`Cn1c(=O)oc2ccc(-c3ccc(CC(C#N)NC(=O)C4CNCCCO4)c(F)c3)cc21` (stereo not drawn) — result for “treatment-emergent adverse event incidence”: 7.4% (item: mouth ulceration; human volunteers; oral).
`CCCCCCCCN(CCC(=O)Nc1ccccc1)C(=O)c1ccccn1` has a half-life of 0.483 h (chemical stability; mouse, serum; 500 µM).
For `CC(C)(Sc1cc[n+]([O-])cc1-c1ccc(C#N)c2ccccc12)C(=O)OC1OC(C(=O)O)C(O)C(O)C1O` (stereo not drawn), the AUC(0-inf) increase was 141% (adult men, plasma; oral, 15 mg verinurad, moderate renal impairment; relative to: normal renal function).
The CC50 of `O=c1c2cc([N+](=O)[O-])ccc2n(CCN2CCCCC2)n1Cc1ccccc1` is reported as 12.1 ± 5.9 µM (resazurin; peritoneal macrophages, BALB/c mice; 48 h, 10% FBS).
With `CC[C@H](C)[C@H](NC(=O)[C@H](CCCCN)NC(=O)[C@@H](NC(=O)[C@H](CS)NC(=O)[C@H](CCCNC(=N)N)NC(=O)[C@H](CCCNC(=N)N)NC(=O)[C@H](CC(N)=O)NC(=O)[C@H](CCCNC(=N)N)NC(=O)[C@H](CCCNC(=N)N)NC(=O)[C@H](CS)NC(=O)[C@@H](NC(=O)[C@H](CO)NC(=O)[C@@H](NC(=O)[C@@H](NC(=O)[C@H](CS)NC(=O)[C@H](CCCCN)NC(=O)[C@@H](N)CCCNC(=N)N)C(C)C)[C@@H](C)CC)C(C)C)[C@@H](C)CC)C(=O)N[C@@H](CC(C)C)C(=O)N[C@@H](CS)C(=O)N[C@@H](CC(N)=O)C(=O)O` the two-disulfide form was 41% (LC/MS; PBS; 0.1 mg/mL; relative to: LC peak area).
Under “loss from soluble fraction”, `CC(C)C[C@H](NC(=O)[C@H](CCCNC(=N)N)NC(=O)[C@H](CCC(N)=O)NC(=O)[C@@H](NC(=O)[C@H](C)NC(=O)[C@@H]1CSSC[C@H](NC(=O)[C@@H](N)CCCCN)C(=O)N[C@@H](CC(N)=O)C(=O)N[C@@H]([C@@H](C)O)C(=O)N[C@@H](C)C(=O)N[C@@H]([C@@H](C)O)C(=O)N1)[C@@H](C)O)C(=O)N[C@@H](C)C(=O)N[C@@H](CC(N)=O)C(=O)N[C@@H](Cc1ccccc1)C(=O)N[C@@H](CC(C)C)C(=O)N[C@H](C(=O)N[C@@H](CCCNC(=N)N)C(=O)N[C@@H](CO)C(=O)N[C@@H](CO)C(=O)N[C@@H](CC(N)=O)C(=O)N[C@@H](CC(N)=O)C(=O)N[C@@H](Cc1ccccc1)C(=O)NCC(=O)N[C@@H](C)C(=O)N1CCC[C@H]1C(=O)N[C@@H](CC(C)C)C(=O)N[C@@H](CO)C(=O)N[C@@H](CO)C(=O)N[C@H](C(=O)N[C@@H](CC(N)=O)C(=O)N[C@H](C(=O)NCC(=O)N[C@@H](CO)C(=O)N[C@@H](CC(N)=O)C(=O)N[C@H](C(=O)N[C@@H](Cc1ccc(O)cc1)C(N)=O)[C@@H](C)O)C(C)C)[C@@H](C)O)C(C)C` is recorded as less than 17% (PBS; 500 µM, 24 h, pH 7.4, together with: equimolar insulin; relative to: time zero).
For `CN1CCC(N[C@@H]2CCc3[nH]c4c(C(N)=O)ccc(-c5ccccc5Cl)c4c3C2)CC1`, the MRT(0-t) was 4.15 h (mouse, plasma; intravenous, 2 mg/kg).
Under “fluorescence quantum yield”, `COc1ccc(/C=C/c2ccc(-c3ccc(C)cn3)nc2)cc1` is recorded as 0.46 (acetonitrile; zinc(II) complex, together with: quinine bisulfate reference).
With `CC[C@H](C)[C@H](NC(=O)[C@H](Cc1ccccc1)NC(=O)[C@H](CCCCN)NC(=O)[C@H](CCCNC(=N)N)NC(=O)[C@H](Cc1ccccc1)NC(=O)[C@H](Cc1ccccc1)NC(=O)[C@H](CCCCN)NC(=O)[C@H](CO)NC(=O)[C@H](CC(C)C)NC(=O)[C@H](CCCNC(=N)N)NC(=O)[C@H](CCSC)NC(=O)[C@H](C)N)C(=O)N[C@@H](CC(C)C)C(=O)N[C@@H](CN)C(=O)N[C@@H](CCCNC(=N)N)C(=O)N[C@@H](CCCCN)C(=O)N[C@@H](CCCCN)C(=O)O` the helicity was 16.4% (circular dichroism; 20% TFE in PBS; 200 µM, pH 7.4, 25 °C).
`CCCC1OC2CC3C4CCC5=CC(=O)C=CC5(C)C4C(O)CC3(C)C2(C(=O)COC(=O)CN(CC)CC)O1` (stereo not drawn) gave a hydrolysed conjugate of 85.7% (human plasma; 200 µg/mL, 12 h).
For `CC12CC(c3ccc(S(C)(=O)=O)cc3)C3=C4CCC(=O)C=C4CCC3C1CCC2(O)C(F)(F)C(F)(F)F` (stereo not drawn), the Vz was 442 L (human, plasma; intravenous, 15.7 µg, [14C] microdose, geometric mean).
`O=C(CCc1ccc(CNC(C(=O)OC2CCCC2)C2CCCCC2)cn1)NO` (stereo not drawn) gave a Vz/F of 245 L (human; oral, 20 mg, single dose, geometric mean).
`CCCC(CCC)NC(=O)c1ccc(O)c(O)c1` has a Tmax of 0.44 h (male Sprague-Dawley rat, plasma; oral, 50 mg/kg of parent drug).
The MRT(0-inf) of `N=C(N)NCCC[C@@H]1NC(=O)[C@H](Cc2c[nH]c3ccccc23)NC(=O)[C@@H](CC2CCCCC2)NC(=O)[C@@H]2CCCN2C(=O)[C@@H](NC(=O)CCc2ccccc2)CCCNC1=O` is reported as 2.43 h (C57BL/6J mouse, plasma brain; oral, 1 mg/kg single dose).
With `CC(=O)N[C@H](CCCCN)C(=O)N[C@H](CC(C)C)C(=O)N[C@H](CCCCN)C(=O)N[C@H](CO)C(=O)N[C@H](CC(C)C)C(=O)N[C@H](CC(C)C)C(=O)N[C@H](CCCCN)C(=O)N[C@@H](C(=O)N[C@H](CC(C)C)C(=O)N[C@H](CO)C(=O)N[C@H](CCCCN)C(=O)N[C@H](C)C(=O)N[C@H](CCCCN)C(=O)N[C@H](CCCCN)C(=O)N[C@H](CCCCN)C(=O)N[C@H](CCCCN)C(=O)N[C@H](CC(C)C)C(=O)N[C@H](CCCCN)C(=O)N[C@@H](C(=O)N[C@H](CC(C)C)C(=O)N[C@H](CC(C)C)C(=O)N[C@H](CCCCN)C(=O)N[C@H](C)C(=O)N[C@H](CC(C)C)C(=O)N[C@H](CO)C(=O)N[C@H](CCCCN)C(N)=O)[C@H](C)O)[C@H](C)O` the self-association parameter was 5.17 (RP-HPLC temperature profiling; pH 2, 5-80 °C, unit not given; relative to: control peptide).
The Papp of `CC(C)(O)c1ccc(N2Cc3c(ccnc3-c3ccc(F)cc3OCC(F)(F)F)C2=O)cc1` is reported as 31.3 ×10⁻⁶ cm/s (PAMPA; pH 5).
`CC(=O)N[C@H](CC(=O)O)C(=O)N[C@H](Cc1c[nH]c2ccccc12)C(=O)N[C@H](Cc1ccccc1)C(=O)N[C@H](CCCCN)C(=O)N[C@H](C)C(=O)N[C@H](Cc1ccccc1)C(=O)N[C@H](Cc1ccc(O)cc1)C(=O)N[C@H](CC(=O)O)C(=O)N[C@H](CCCCN)C(=O)N[C@@H](C(=O)N[C@H](C)C(=O)N[C@H](CCC(=O)O)C(=O)N[C@H](CCCCN)C(=O)N[C@H](Cc1ccccc1)C(=O)N[C@H](CCCCN)C(=O)N[C@H](CCC(=O)O)C(=O)N[C@H](C)C(=O)N[C@H](Cc1ccccc1)C(N)=O)C(C)C` gave an AUC(0-t) of 2.82 ng·h/mL (statin-treated high-risk CHD men, plasma; oral, 100 mg daily, day 1, 0 to 2 h, mean, undetectable set to 0).
`CC(C)[C@H](NC(=O)[C@@H]1CCCN1C(=O)[C@H](CCCNC(=N)N)NC(=O)[C@H](CS)NC(=O)[C@H](Cc1c[nH]c2ccccc12)NC(=O)[C@H](CCCNC(=N)N)NC(=O)[C@@H](Cc1ccccc1)NC(=O)[C@H](Cc1c[nH]cn1)NC(=O)[C@H](CCC(=O)O)NC(=O)[C@H](CS)NC(=O)[C@H](CS)NC(=O)[C@@H]1CC(=O)N[C@@H](CCCNC(=N)N)C(=O)NCC(=O)N[C@@H](CC(=O)O)C(=O)N[C@H](Cc2ccc(O)cc2)C(=O)N1)C(N)=O` [technetium-99m labelled] gave a tissue uptake of 0.63 ± 0.29 %ID/g (C57 mouse, female, B16/F1 melanoma, lung; intravenous, 0.037 MBq, 4 h).
With `C=C(c1ncc(C(=O)O)cn1)c1cc2c(cc1C)C(C)(C)CCC2(C)C` the blood triglycerides was 164 ± 122 mg/dL (Sprague-Dawley rat, male; oral, 100 mg/kg, 3 h, sesame oil vehicle).
`CC1=C(/C=C/C(=O)N2CCN(C(N)=O)CC2)C(C)(C)CCC1` has a Cmax of 1.45 nmol/g (female mice, plasma; oral, 20 mg/kg).
For `CC(C)[C@H](NC(=O)CNC(=O)[C@H](CCC(N)=O)NC(=O)[C@H](C)N)C(=O)O`, the AUC(0-inf) was 175 ng·h/mL (human, plasma; intravenous infusion, 10 mg/kg single, 15 min infusion, geometric mean).
For `COc1ccc2c(c1OCc1ccccc1)C[C@@H](C(=O)O)N(c1nc3ccc(C#N)cc3o1)C2`, the scaled CLint was 26 mL/min/kg (metabolic stability; human, hepatocytes; 1 µM).
`CN1CCC[C@]1(C)/C=C/S(=O)(=O)NC(=O)Nc1c2c(cc3c1CCC3)CCC2` — result for “Cmax after second dose”: 1800 ng/mL (human, plasma; oral, 12.5 mg twice daily, day 14, multiple ascending dose).
Under “half-life of Asn form”, `CC(=O)N[C@@H](CC(N)=O)C(=O)NCC(=O)N[C@@H](C)C(=O)N[C@@H](C)C(N)=O` is recorded as 148 h (1H NMR; sodium phosphate buffer 50 mM; pH 7.4, 28 °C).
With `CCCC[C@@H]1NC(=O)[C@@H](NC(=O)[C@H](CCC(=O)O)NC(=O)CNC(=O)CN2CCN(CC(=O)O)CCN(CC(=O)O)CCN(CC(=O)O)CC2)CCCCNC(=O)C[C@@H](C(N)=O)NC(=O)[C@H](C(C)C)NC(=O)[C@@H]2CCCN2C(=O)[C@H](CCCNC(=N)N)NC(=O)CNC(=O)[C@H](Cc2c[nH]c3ccccc23)NC(=O)[C@H](CCCNC(=N)N)NC(=O)[C@@H](Cc2ccccc2)NC(=O)[C@H](Cc2c[nH]cn2)NC(=O)[C@H](CCC(=O)O)NC1=O` [gallium-67 labelled] the tissue uptake was 23.9 ± 7.15 %ID/g (C57 mice with B16/F1 melanoma, kidneys; intravenous, 0.037 MBq, 0.5 h).
`CC(=O)N[C@H](CCNC(=O)c1cc(NC(=O)c2cc(NC(=O)c3cc(NC(=O)c4nccn4C)cn3C)cn2C)cn1C)C(=O)Nc1cn(C)c(C(=O)Nc2cc(C(=O)Nc3cc(C(=O)Nc4cc(C(=O)NCCCN(C)CCCN[14C](=O)c5cccc([14C](=O)O)c5)n(C)c4)n(C)c3)n(C)c2)n1`: “tissue concentration ratio” greater than 10 fold (BALB/c male mice, bone marrow; intraperitoneal, 15 nmol per animal, 24 h; relative to: bone marrow over blood).

Some of these lines once more:
With `CC[C@H](C)[C@H](NC(=O)[C@H](CCCCN)NC(=O)[C@@H](NC(=O)[C@H](CS)NC(=O)[C@H](CCCNC(=N)N)NC(=O)[C@H](CCCNC(=N)N)NC(=O)[C@H](CC(N)=O)NC(=O)[C@H](CCCNC(=N)N)NC(=O)[C@H](CCCNC(=N)N)NC(=O)[C@H](CS)NC(=O)[C@@H](NC(=O)[C@H](CO)NC(=O)[C@@H](NC(=O)[C@@H](NC(=O)[C@H](CS)NC(=O)[C@H](CCCCN)NC(=O)[C@@H](N)CCCNC(=N)N)C(C)C)[C@@H](C)CC)C(C)C)[C@@H](C)CC)C(=O)N[C@@H](CC(C)C)C(=O)N[C@@H](CS)C(=O)N[C@@H](CC(N)=O)C(=O)O` the two-disulfide form was 41% (LC/MS; PBS; 0.1 mg/mL; relative to: LC peak area).
With `CCCC[C@@H]1NC(=O)[C@@H](NC(=O)[C@H](CCC(=O)O)NC(=O)CNC(=O)CN2CCN(CC(=O)O)CCN(CC(=O)O)CCN(CC(=O)O)CC2)CCCCNC(=O)C[C@@H](C(N)=O)NC(=O)[C@H](C(C)C)NC(=O)[C@@H]2CCCN2C(=O)[C@H](CCCNC(=N)N)NC(=O)CNC(=O)[C@H](Cc2c[nH]c3ccccc23)NC(=O)[C@H](CCCNC(=N)N)NC(=O)[C@@H](Cc2ccccc2)NC(=O)[C@H](Cc2c[nH]cn2)NC(=O)[C@H](CCC(=O)O)NC1=O` [gallium-67 labelled] the tissue uptake was 23.9 ± 7.15 %ID/g (C57 mice with B16/F1 melanoma, kidneys; intravenous, 0.037 MBq, 0.5 h).
`CC(C)[C@H](NC(=O)[C@@H]1CCCN1C(=O)[C@H](CCCNC(=N)N)NC(=O)[C@H](CS)NC(=O)[C@H](Cc1c[nH]c2ccccc12)NC(=O)[C@H](CCCNC(=N)N)NC(=O)[C@@H](Cc1ccccc1)NC(=O)[C@H](Cc1c[nH]cn1)NC(=O)[C@H](CCC(=O)O)NC(=O)[C@H](CS)NC(=O)[C@H](CS)NC(=O)[C@@H]1CC(=O)N[C@@H](CCCNC(=N)N)C(=O)NCC(=O)N[C@@H](CC(=O)O)C(=O)N[C@H](Cc2ccc(O)cc2)C(=O)N1)C(N)=O` [technetium-99m labelled] gave a tissue uptake of 0.63 ± 0.29 %ID/g (C57 mouse, female, B16/F1 melanoma, lung; intravenous, 0.037 MBq, 4 h).
